# Measured values pooled from the literature.
# A part holds a random share of what one study measured.

# Block 1 — method: RNA Bind-n-Seq; molecule type: RNA; sample: in vitro; concentration: not given; reference: input RNA pool; reading: higher = stronger binding
# Target: RING finger protein unkempt homolog, zinc fingers 1-6, GST-SBP tag (UNK, Homo sapiens, UniProt Q9C0B0, residues 30-357)
# Setting: RNA with constant flanks, human-mouse chimeric sites, ends assumed
# All sequences stand within: GGGAGUUCUACAGUCCGACGAUC … CAACAGAGGAUUGAGCAUCA
# Residues (chain): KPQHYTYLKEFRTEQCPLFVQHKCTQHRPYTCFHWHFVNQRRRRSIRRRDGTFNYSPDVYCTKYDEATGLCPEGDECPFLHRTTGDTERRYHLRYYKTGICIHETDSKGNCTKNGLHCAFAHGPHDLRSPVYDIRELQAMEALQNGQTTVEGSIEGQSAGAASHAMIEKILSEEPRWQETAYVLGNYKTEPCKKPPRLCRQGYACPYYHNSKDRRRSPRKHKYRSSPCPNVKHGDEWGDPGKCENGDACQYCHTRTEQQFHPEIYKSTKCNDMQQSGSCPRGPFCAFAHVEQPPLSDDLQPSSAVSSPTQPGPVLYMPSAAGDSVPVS
Oligonucleotide,bound/input enrichment [ratio]
CACAGAGGAGAUCUGCUGUUCCUCACAAAUUUCCGGGAAGACCCAAUCAGAGCUGGUGAAAUAGUUGUUUUUAAGGUUGAAGGAAGAGACAUUCCGAUAGUUCACAGAGUAAUCAAGGUU,1.33
UUUGUAAUAUCUGUAAAAGGUUCCCCCCCCCUACUGUCAAAAAAUAUGCAUGUAUAGUAAUUAGGACUUCAUUCCUCCAUGUUUUCUUCCCUUAUCUUACUGUCAUUGUCCUUAAACCUU,2.93
CAGGGCAUCAUCUCUCGUGCUGUUAGACACCUGUUCAAGAGUAUUGAAGAAAAAAAAACCUCAGCGAUUAAAAACGGGCUGCCCCCUCCAGAUUUUAAAGUGAAUGCCCAGUUCCUAGAG,0.778
CUGAGGAUACCACUGAAGAGACCUUAAAAGGAGUCAUUGAGGGCUCUGUUCGUGCAAGAAUAGUCACUGAUCGGGAAACUGGUUCUUCCAAAGGGUUUGGUUUUGUAAGACUUCAACGUG,0.32
AAAGAACCUCUCUCUGAAGAAGAGGAAGAAGACAAUGAUGAUGUUGAACCCAUUUCUGAAUUUCGAUUUGUGCCCAGUGAUAAGUCAGCAUUGGAGGCGAUGUUCACUGCAAUGUGCGAG,0.28
UUGAAAACUGAUUCAAGUAAGUUUGAGUAUCACAAUGUUAGCUUUCUAAUUCCACACAGAUAGUUUUUUUUUACAGUUUAUAAUCUGACAUCACCCCAGCGCCAUUUGUAAAGAGCAACU,16.6
CUCGGCACCGGCACGCUUUACAUCGCUGAGAGCCGCCUGUCCUGGUUAGAUGGUUCGGGAUUAGGAUUCUCACUGGAAUACCCCACCAUUAGUUUACAUGCGGUGUCCAGGGACCGAAAC,0.575
CGCUUGGAUGAGGCGGGUGUUACUGAUGAAGUGCUAGAUUCUGCCAUGCAAGCCUUCCUUCUGGAGGUUAUCGUUAAACAUGGGGAGCCGGCACCUUAUUUAUGUAACAAAGAUCCGUUU,0.0941
UCAGGAACCCAGACAAACAUGAAUGUAAAUGAAGUCAUUAGCAAUAGAGCAAUUGAAAUGUUAGGAGGUGAACUUGGCAGCAAGAAGCCUGUGCACCCCAAUGAUCAUGUUAAUAAAAGC,0.829
AAAGAAUGGAUAGAGUGUGCACACGGGAUCGGUGGGACCCGGGCGAAAAAGGAGUGCAAGAUAGAAUUCGAUGACUUCGAAGAGUGCUUGCUUCGGUACAAAACGAUGAGGCGAAUGCAU,0.571
AACAGAUUGUCUUUAAGCAUUCCAAGCGAGAAUGCUGGGGUGAUCAUUGUUGCCCAUGUGCCUUCUGACUGAGCUUUAAUGCUGUUCCAUGUUACAUUGAUGUUCUUCUCCAGAAUUGUU,0.119

# Block 2 — method: universal PBM; molecule type: double-stranded DNA, one strand shown; sample: in vitro; concentration: not given; reading: higher = stronger binding
# Target: Sal-like protein 4, full length isoform B (SALL4, Homo sapiens, UniProt Q9UJQ4-2, residues 1-616)
# Setting: 8-mer, flanks averaged, mean of replicates
# Construct (chain): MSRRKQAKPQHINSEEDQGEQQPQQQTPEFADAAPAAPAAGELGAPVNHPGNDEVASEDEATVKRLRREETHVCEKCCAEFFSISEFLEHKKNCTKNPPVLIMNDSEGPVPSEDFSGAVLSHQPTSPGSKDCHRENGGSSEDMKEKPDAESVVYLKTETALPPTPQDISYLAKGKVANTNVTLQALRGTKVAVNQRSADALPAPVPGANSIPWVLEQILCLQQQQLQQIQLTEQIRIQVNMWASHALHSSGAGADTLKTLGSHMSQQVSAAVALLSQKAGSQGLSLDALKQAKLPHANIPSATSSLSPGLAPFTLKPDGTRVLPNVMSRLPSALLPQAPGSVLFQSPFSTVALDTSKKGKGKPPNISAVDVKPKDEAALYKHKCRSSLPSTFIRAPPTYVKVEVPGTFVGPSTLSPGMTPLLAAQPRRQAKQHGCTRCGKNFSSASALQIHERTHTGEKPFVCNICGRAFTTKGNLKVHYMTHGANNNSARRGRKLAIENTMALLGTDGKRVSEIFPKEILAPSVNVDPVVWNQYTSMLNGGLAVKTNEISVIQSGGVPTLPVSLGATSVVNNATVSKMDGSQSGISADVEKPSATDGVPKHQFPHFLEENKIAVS
Oligonucleotide,E-score
CTCCGTCA,-0.0356
ACCTTCGC,-0.166
AGTTCCGG,-0.315
CCAATTGA,0.16
AATCGCAT,0.0896
CTACACAC,0.129
GGAAGACC,-0.327
CAGGGAGC,-0.181
CAATTCTC,0.0741
GGAGATTA,0.111
ACTACACG,0.0758
ATGATAGA,0.207
CTCAACAA,0.0801
AAGAAAGG,0.059
CCGGCTGC,-0.424
AATTCGTG,0.0888
ATCTGACA,0.0102

# Block 3 — method: aptamer microarray, sandwich; molecule type: DNA with 2'F-ANA; sample: in vitro; concentration: 200 nM; with: Cy3 exosite-II aptamer, 400 nM; reading: higher = stronger binding; oligonucleotide: GGTTGGTGTGGTTGG
# Target: Prothrombin, mature alpha-thrombin (F2, Homo sapiens, UniProt P00734)
# Setting: whole 15-mer aptamer, many near background
Modification,mean fluorescence intensity [a.u.]
2'F-ANA at 1 4 5 6 10 12 13 14,48.2
2'F-ANA at 10 11 12 13,193
2'F-ANA at 1 3 6 9 10 12 13,99.9
2'F-ANA at 1 6 7 8 9 12 14,78.3
2'F-ANA at 3 4 5 7 12 15,391
2'F-ANA at 4 5 6 7 8 9 11 15,59.7
2'F-ANA at 1 4 5 7 11 12 13 14 15,44.4
2'F-ANA at 1 5 6 8 13 14,45
2'F-ANA at 1 2 6 7 10 11 13 14 15,68.4
2'F-ANA at 1 2 3 4 6 8 10 12 13,58.4
2'F-ANA at 1 2 3 5 6 7 10 14 15,48.8
2'F-ANA at 1 2 6 7 8 9 11 12 13 15,201
2'F-ANA at 1 2 3 4 6 7 8 10 11 13 14 15,48.3
2'F-ANA at 2 5 6 8 9 14 15,47.3
2'F-ANA at 3 4 6 7 9 12 14 15,254
2'F-ANA at 1 2 5 6 7 10 11 12,77.2
2'F-ANA at 5 12 14 15,47.4
2'F-ANA at 2 6 8 9 10,109
2'F-ANA at 2 6 8 9 10 14,98.7
2'F-ANA at 2 3 4 5 6 9 10 12 14 15,64.3
2'F-ANA at 1 2 3 5 6 7 8 9 10 11 12 13 14,51.1
2'F-ANA at 1 2 3 7 8 9 10 11 12 15,86.1
2'F-ANA at 2 3 10 13 14,289
2'F-ANA at 2 3 5 8 9 10 12 13 14 15,53.3
2'F-ANA at 1 5 6 9 11 13 14,51.7

# Block 4 — method: RNA Bind-n-Seq; molecule type: RNA; sample: in vitro; concentration: 365 nM; reference: no-protein control; reading: higher = stronger binding
# Target: RNA binding protein fox-1 homolog 2, RRM domain, GST-SBP tag (RBFOX2, Homo sapiens, UniProt O43251-10, residues 100-194)
# Setting: natural RNA segment, single round, ends assumed
# All sequences stand within: GGGAGUUCUACAGUCCGACGAUC … UGGAAUUCUCGGGUGCCAA
# Construct (chain): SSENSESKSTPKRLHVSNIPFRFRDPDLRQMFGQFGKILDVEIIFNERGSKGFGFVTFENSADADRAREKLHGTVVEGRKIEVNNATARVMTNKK
Oligonucleotide,RBNS enrichment (R)
GUUUUCCUGACUUCCAGCCUUGCCUGACUCACCGGGAUCCUUAUGUUUGGGCCUUCCCCAUCCUAUUGGACUGGCUGAUGCUCCUAGUUUAUAAUGUUCUGGCGUUGUAG,0.448
UUUAUUGGUUUCCAAAGAAACAAACCAAACCAACCAGCUCUUGGAUGUGAAGAUAAAAUAGUGCUUUUUUGAAAUGGAGAGGAAAAACUUGGGGAGGAAGAGGCCUGCUG,0.746
AUGACCUUUAUCAUCAACUCUGAUUCGAUCCAUGCGUUUUUUUUAUACUAAGCAAUAACUUUACGAUCAACAGAAGAAAUUUUAAAACAGAGUCUCCUUUUCCCAUCCUU,0.436
GUAAGAGGACCCGUGAGGACACCAGAGUCUAGCCCAGAAAGCCCGGGAGGGCUGGAGAGCGAGUACAGUUGUGAACGGGGUAAAGAAAGGCCCUCUAGUGAAGAUGUUGU,0.54
GCCCCUUGCCUAAAAGCCUGUACCUCUGGAUUGGCGGAAGUAAAUCUGGAAGGAUUCUCACUCGUAUUUCCCACCCCUAGUGGCCAGAGGAGGGAGGGGCACAGUGAAGA,0.71
GUUUUAUAGAUACGGAAAACAAGGGUGACUCUUUACCACAGGAUGAAUAAAGAACUAAGUAAUAUGGGAAAUGCAGCAAUUUCUGGACUAGCUGAGCCGAUUCCUUCCUG,0.578
GAGCUCGGCCCUCUCUUUGUAGCUGUGACUGUCACCCUCUCAGGCUUUGUCUCAUCCUUCAUUCUGAAUAAGAUGGCAGUGUUCUCCUCUGGGGCCUGAUCCACCUCUAC,0.328
UGCACCAAGGGCACAAGAGUGGCAGUCCAGAUCUGCCACUUGUUUUAAUAAAGCCUUCUCUCUCACCGCUAUCAAUGUCUGUACCCUCUGGGCAUGGCUAUGUGUGAAGU,0.56
AUAAAUAUGUAAGACUAGGCUUUACUGUCUUAUGCUUAUGGACAUUGUAUAUUUGUAUUUUAUGACCAAGUAGACCAAGUCAGAAAGAUCUCUCUCGAGCGUACCAUAAA,0.272
CCGCCCCGUGCUGAGCCUUCUGCUGAGGUCCUUGCGUGGAGCACACUCAUUCCUCCAAGCCCUUGCGCUCCCGUUUCUCUCUCUCUCCGUCCACGUUCCAGCCGAGUCAC,0.659
AGUCUGGAGUCUAGGGUUGGGCAGAAGAUGACAUUUAAUUUGGAAAUUUCUUUUUACUUUUGUGGAGCAUUAGAGUCACAGUUUACCUUAUUGAUAUUGGUCUGAUGGUU,0.686
CUGCACCUUCCUUUCUUCCACAAACACAUAUUGAUAGAUGCAAGAGACUCUUAUUUAGAAGGCGUGGGGGACAAGAAGGAUACAAGGUAAGUUUCAGUGGAGCUCAGAGG,0.704
